Measured values collected from several papers.
Protocols differ between the studies behind these lines. “And” joins repeats or separate records; there may be more than shown.
Cell line: HeLa

| SMILES | assay | setting | scale | measurement | value |
| --- | --- | --- | --- | --- | --- |
| CC[C@H](C)n1cc(C)c2c(C(=O)NCc3c(C)cc(C)[nH]c3=O)cc(-c3ccc(N4CCNCC4)nc3)cc21 | histone methylation reduction, AlphaLISA, measured: H3K27me3 | 72 h |  | EC50 | 0.33 µM |
| CCCC[N+]1=c2cc3c4cc2[O][Mn-2]1(=[C]=O)(=[C]=O)(=[C]=O)[n+]1ccc(cc1)C(=O)OCCOC(=O)c1cc[n+](cc1)[Mn-2](=[C]=O)(=[C]=O)(=[C]=O)([O]3)[N+]=4CCCC | MTT | 50 µM, 48 h, photolysed compound |  | viability reduction | ~77% |
| CCCCCCCCCCCCNC(=S)NCCCC[C@H](NC(=O)OCc1ccccc1)C(=O)N[C@H](C)C(=O)N[C@@H](CCCNC(=N)N)C(N)=O | cell growth or viability, MTT | 72 h |  | EC50 | 25.8 to 34.9 µM |
| COc1ccccc1CNC[C@@](O)(COCc1ccccc1)[C@@H]1CC[C@@H](C)C[C@H]1OCc1ccccc1 | cell growth or viability, MTT | 30 µM, 72 h |  | inhibition | 98.3% |
| CCC(=CCc1c(O)cc2c(c1O)C(=O)CC(c1ccc(OC)c(O)c1)O2)CC (stereo not drawn) | cell growth or viability, MTT | 100 µM, 48 h |  | inhibition | 100% |
| COc1cccc(CNC[C@](O)(COCc2ccccc2)[C@@H]2CC[C@@H](C)C[C@H]2OCc2ccccc2)c1 | cell growth or viability, MTT | 10 µM, 72 h |  | inhibition | 99.4% |
| CCCCCCCCCCCC(=O)N[C@@H](CO)C[C@@H](O)c1cccc(CCCCCC)c1 | CERT activity, HPLC-MS/MS lipidomics, measured: ceramide 24 | 1 µM, 24 h, not cell-number normalised |  | ceramide level | 13500 pmol/sample and 15500 pmol/sample and 12100 pmol/sample |
| C=CCc1c(O)cc2c(c1O)C(=O)CC(c1ccc(O)cc1)O2 (stereo not drawn) | cell growth or viability, MTT | 0.781 µM, 48 h |  | inhibition | 1.47% |
| Cc1ccc2c(Cl)cc(Cl)c([O-])c2n1.Cc1ccc2c(Cl)cc(Cl)c([O-])c2n1.[Co+2].c1cnc2c(c1)ccc1cccnc12 | cell growth or viability, MTT | 48 h |  | IC50 | 1.99 µM |
| Cc1cc(=O)oc2cc(OCCCCCCSC#N)ccc12 | cell growth or viability, SRB |  |  | GI50 | 2.7 µM |
| Clc1cc(NCc2ccco2)c2cccc(OCC3COCCO3)c2n1 (stereo not drawn) | splicing reporter, measured: GLA | 10 µM, 18 h |  | GFP/RFP ratio | 3.5 |
| COc1ccc(CNC[C@](O)(COCc2ccccc2)[C@@H]2CC[C@@H](C)C[C@H]2OCc2ccccc2)cc1 | cell growth or viability, MTT | 30 µM, 72 h |  | inhibition | 97.4% |
| CCC(=CCc1c(O)cc2c(c1O)C(=O)CC(c1cccc(OC)c1O)O2)CC (stereo not drawn) | cell growth or viability, MTT | 0.781 µM, 48 h |  | inhibition | 0.006% |
| CSc1cc(C)[nH]c(=O)c1CN1CCc2c(Cl)c3c(c(C)c2C1=O)OC(C)(C1CCC(N(C)C)CC1)O3 (stereo not drawn) | histone methylation reduction, AlphaLISA, measured: H3K27me3 | 72 h |  | EC50 | 0.00099 µM |
| CCCCCCc1cccc([C@H](O)C[C@H](CO)NC(=O)CCCCCOc2ccc3ccccc3c2)c1 | CERT activity, HPLC-MS/MS lipidomics, measured: ceramide 22 | 1 µM, 24 h, not cell-number normalised |  | ceramide level | 1890 pmol/sample and 1950 pmol/sample and 1200 pmol/sample |
| CN(C)c1ccc(-n2cc(COC(=O)[C@]3(C)C=C(C(=O)OC(C)(C)C)C(=O)CC3)nn2)cc1 | quantitative western blot | concentration not given, 0 (unit not given), added: EGF |  | pERK/ERK ratio | 0.174 |
| C[C@H]1O[C@@H]2C3=C(O[C@]2(C)[C@@]1(O)C=O)C(=O)c1c(O)cccc1C3=O | cell growth or viability, MTT | 48 h |  | EC50 | 22 µM |
| C[C@@H]1CC[C@@H]([C@@](O)(CNCc2ccccc2F)COCc2ccccc2)[C@H](OCc2ccccc2)C1 | cell growth or viability, MTT | 10 µM, 72 h |  | inhibition | 83% |

| SMILES | assay | setting | scale | measurement | value |
| --- | --- | --- | --- | --- | --- |
| CCCC[N+]1=c2cc3c4cc2[O][Mn-2]1(=[C]=O)(=[C]=O)(=[C]=O)[n+]1ccc(cc1)C(=O)OCCOCCOC(=O)c1cc[n+](cc1)[Mn-2](=[C]=O)(=[C]=O)(=[C]=O)([O]3)[N+]=4CCCC | MTT | 50 µM, 48 h, photolysed compound |  | viability reduction | 78% |
| N=C(N)NCCC[C@H](NC(=O)[C@@H]1CCCN1C(=O)[C@H](CCCNC(=N)N)NC(=O)[C@@H]1CCCN1C(=O)[C@H](CCCNC(=N)N)NC(=O)[C@@H]1CCCN1C(=O)[C@H](CCCNC(=N)N)NC(=O)[C@@H]1CCCN1C(=O)[C@H](CCCNC(=N)N)NC(=O)[C@@H]1CCCN1C(=O)[C@H](CCCNC(=N)N)NC(=O)[C@@H]1CCCN1C(=O)[C@H](CCCNC(=N)N)NC(=O)[C@@H]1CCCN1C(=O)[C@H](CCCNC(=N)N)NC(=O)[C@@H]1CCCN1C(=O)[C@H](CCCNC(=N)N)NC(=O)[C@@H]1CCCN1C(=O)[C@H](CCCNC(=N)N)NC(=O)[C@@H]1CCCN1C(=O)[C@H](CCCNC(=N)N)NC(=O)[C@@H]1CCCN1C(=O)[C@H](CCCNC(=N)N)NC(=O)[C@@H]1CCCN1C(=O)[C@H](CCCNC(=N)N)NC(=O)[C@@H]1CCCN1C(=O)[C@H](CCCNC(=N)N)NC(=O)[C@@H]1CCCN1C(=O)[C@H](CCCNC(=N)N)NC(=O)[C@@H]1CCCN1C(=O)[C@H](CCCNC(=N)N)NC(=O)[C@@H]1CCCN1C(=O)[C@H](CCCNC(=N)N)NC(=O)[C@@H]1CCCN1C(=O)[C@H](CCCNC(=N)N)NC(=O)[C@@H]1CCCN1C(=O)[C@H](CCCNC(=N)N)NC(=O)[C@@H]1CCCN1C(=O)[C@H](CCCNC(=N)N)NC(=O)[C@@H]1CCCN1C(=O)[C@H](CCCNC(=N)N)NC(=O)[C@@H]1CCCN1C(=O)[C@H](CCCNC(=N)N)NC(=O)[C@@H]1CCCN1C(=O)[C@H](CCCNC(=N)N)NC(=O)[C@@H]1CCCN1C(=O)[C@H](Cc1ccc(O)cc1)NC(=O)[C@H](CO)NC(=O)CN)C(=O)O | immunofluorescence | 20 µM |  | fibrillarin localization | no effect |
| CCN(C(=O)c1cc(F)ccc1Oc1nncnc1N1CCC2(C1)CN([C@H](CCCN(C)CCOC)C(C)C)C2)C(C)C | cell growth or viability | 72 h |  | GI50 | > 10 µM |
| CCCCCCc1cccc(C(O)CC(CO)NC(=O)CCCCCCCCCCNC(C)=O)c1 (stereo not drawn) | CERT activity, HPLC-MS/MS lipidomics, measured: ceramide 20 | 1 µM, 24 h, not cell-number normalised |  | ceramide level | 75 pmol/sample and 95 pmol/sample and 103 pmol/sample |
| Cc1cc(C)nc(SCC(=O)Nc2ncc(Cc3cccc4ccccc34)s2)n1 | cell growth or viability, MTT | 72 h |  | EC50 | 13.8 to 20.8 µM |
| COc1ccc(CNC[C@@](O)(COCc2ccc(F)cc2)[C@@H]2CC[C@@H](C)C[C@H]2OCc2ccc(F)cc2)cc1 | cell growth or viability, MTT | 10 µM, 72 h |  | inhibition | 94.2% |
| COc1ccc(C2CC(=O)c3c(cc(O)c(CC=C(C)C)c3O)O2)cc1 (stereo not drawn) | cell growth or viability, MTT | 1.563 µM, 48 h |  | inhibition | 2.4% |
| CN1CC(COc2cccc3c(NCc4ccco4)nc(Cl)nc23)OC1=O (stereo not drawn) | splicing reporter, measured: GLA | 10 µM, 18 h |  | GFP/RFP ratio | 3.4 |
| CCC(=CCc1c(O)cc2c(c1O)C(=O)CC(c1cc(OC)ccc1O)O2)CC (stereo not drawn) | cell growth or viability, MTT | 3.125 µM, 48 h |  | inhibition | 2.11% |
| NCCOc1cc(NC(=O)c2cc(Cl)cc(C(=O)Nc3cc(OCCN)c4ccccc4n3)n2)nc2ccccc12 | cell viability, CellTiter-Glo | 72 h | reference: IC50 HeLa over WI-38 | selectivity ratio | 1.1 |
| C[C@@H]1CC[C@@H]([C@](O)(CNCc2ccc(F)cc2)COCc2ccccc2)[C@H](OCc2ccccc2)C1 | cell growth or viability, MTT | 30 µM, 72 h |  | inhibition | 98.9% |
| CCC(=CCc1c(O)cc2c(c1O)C(=O)CC(c1ccc(O)c(OC)c1)O2)CC (stereo not drawn) | cell growth or viability, MTT | 12.5 µM, 48 h |  | inhibition | 54.9% |
| CC(=S)NCCCC[C@H](NC(=O)OCc1ccccc1)C(=O)N[C@@H](Cc1c[nH]c2ccccc12)C(=O)NC(C)C | cell growth or viability, MTT | 72 h |  | EC50 | 27.8 to 40.7 µM |
| O=C(CCCCCOc1ccc2ccccc2c1)N[C@@H](CO)C[C@@H](O)c1ccc(-c2ccccc2)cc1 | CERT activity, HPLC-MS/MS lipidomics, measured: ceramide 24:1 | 1 µM, 24 h, not cell-number normalised |  | ceramide level | 19700 pmol/sample and 21500 pmol/sample and 18500 pmol/sample |
| CCC(=CCc1c(O)cc2c(c1O)C(=O)CC(c1cccc(O)c1)O2)CC (stereo not drawn) | cell growth or viability, MTT | 1.563 µM, 48 h |  | inhibition | 6.73% |
| C[C@@H]1CC[C@@H]([C@@](O)(CNCc2ccc(F)cc2)COCc2ccc(F)cc2)[C@H](OCc2ccc(F)cc2)C1 | cell growth or viability, MTT | 10 µM, 72 h |  | inhibition | 93.4% |
| CCC(=CCc1c(O)cc2c(c1O)C(=O)CC(c1c(O)cccc1OC)O2)CC (stereo not drawn) | cell growth or viability, MTT | 50 µM, 48 h |  | inhibition | 40.9% |
| CC(C)(C)c1ccc([C@H](O)C[C@H](CO)NC(=O)CCCCCOc2ccc3ccccc3c2)cc1 | CERT activity, HPLC-MS/MS lipidomics, measured: ceramide 22 | 1 µM, 24 h, not cell-number normalised |  | ceramide level | 2430 pmol/sample and 2680 pmol/sample and 1230 pmol/sample |

For quick reference, copied from above:
| SMILES | assay | setting | scale | measurement | value |
| --- | --- | --- | --- | --- | --- |
| CSc1cc(C)[nH]c(=O)c1CN1CCc2c(Cl)c3c(c(C)c2C1=O)OC(C)(C1CCC(N(C)C)CC1)O3 (stereo not drawn) | histone methylation reduction, AlphaLISA, measured: H3K27me3 | 72 h |  | EC50 | 0.00099 µM |
| CC[C@H](C)n1cc(C)c2c(C(=O)NCc3c(C)cc(C)[nH]c3=O)cc(-c3ccc(N4CCNCC4)nc3)cc21 | histone methylation reduction, AlphaLISA, measured: H3K27me3 | 72 h |  | EC50 | 0.33 µM |
| CCC(=CCc1c(O)cc2c(c1O)C(=O)CC(c1cccc(O)c1)O2)CC (stereo not drawn) | cell growth or viability, MTT | 1.563 µM, 48 h |  | inhibition | 6.73% |
| CC(=S)NCCCC[C@H](NC(=O)OCc1ccccc1)C(=O)N[C@@H](Cc1c[nH]c2ccccc12)C(=O)NC(C)C | cell growth or viability, MTT | 72 h |  | EC50 | 27.8 to 40.7 µM |
| COc1ccc(CNC[C@@](O)(COCc2ccc(F)cc2)[C@@H]2CC[C@@H](C)C[C@H]2OCc2ccc(F)cc2)cc1 | cell growth or viability, MTT | 10 µM, 72 h |  | inhibition | 94.2% |
